{"data": "Measurements of several laboratories", "organism": "Salmonella typhimurium", "note": "Protocols differ between the studies behind these lines. ± gives the spread as reported."}
{"Structure (SMILES)": "OC(CCN1CC=C(c2ccc(F)cc2)CC1)c1ccc(F)c2ccccc12 (stereo not drawn)", "test": "SOS/umu test", "system": "TA1535/pSK1002", "setting": "0.008 mg/mL, 4 h, without S9, lower range", "endpoint": "survival", "value": "91.1%"}
{"Structure (SMILES)": "CNC(=O)c1c(N(C)N=O)ncn1C", "test": "mutagenicity, Ames plate incorporation", "system": "TA100", "setting": "2500 µg/plate, without S9, methanol", "endpoint": "revertant colonies per plate", "value": "119 ± 15"}
{"Structure (SMILES)": "Fc1ccc(C2=CCNCC2)cc1", "test": "SOS/umu test", "system": "TA1535/pSK1002", "setting": "0.125 mg/mL, 4 h, with S9, full range", "endpoint": "survival", "value": "105%"}
{"Structure (SMILES)": "COCCN(CCOC)N=O", "test": "mutagenicity, Ames plate incorporation", "system": "TA1535", "setting": "150 µg/plate, 3 d, without S9, methanol", "endpoint": "revertant colonies per plate", "value": "17 ± 4"}
{"Structure (SMILES)": "Cc1cc(C(=O)NC(C)(C)COc2cccc3c2C(N)=NS(=O)(=O)N3)cc(C)n1", "test": "Ames test, initial", "system": "TA98", "setting": "50.0 µg/plate, with: rat liver S9", "how to read": "baseline: solvent control", "endpoint": "revertant ratio", "value": 0.9}
{"Structure (SMILES)": "O=[N+]([O-])c1ccc(N2CCN(CCC(O)c3ccc(F)cc3)CC2)c(C(F)(F)F)c1 (stereo not drawn)", "test": "genotoxicity, SOS/umu test", "system": "TA1535/pSK1002", "setting": "0.001 mg/mL, 4 h, with S9, lower range", "endpoint": "induction factor", "value": 1}
{"Structure (SMILES)": "CC(=O)N1CCC(C(=O)N2CCN3C(=O)c4cc(-c5ccccc5)ccc4NC(=O)C3C2)CC1 (stereo not drawn)", "system": "TA1537", "setting": "5000 µg/plate, with: rat liver S9", "how to read": "baseline: vehicle", "endpoint": "fold increase in revertants", "value": 1.3}
{"Structure (SMILES)": "CC(C)N(C)N=O", "test": "mutagenicity, Ames plate incorporation", "system": "TA1535", "setting": "500 µg/plate, 3 d, without S9, methanol", "endpoint": "revertant colonies per plate", "value": "22.3 ± 8"}
{"Structure (SMILES)": "O=[N+]([O-])c1ccc(N2CCC(NCCC(O)c3ccc(F)c4ccccc34)CC2)c(C(F)(F)F)c1 (stereo not drawn)", "test": "genotoxicity, SOS/umu test", "system": "TA1535/pSK1002", "setting": "0.063 mg/mL, 4 h, without S9, full range", "endpoint": "induction factor", "value": 0.29}
{"Structure (SMILES)": "O=NN1CCN(C2CCCC2)CC1", "test": "mutagenicity, Ames plate incorporation", "system": "TA100", "setting": "500 µg/plate, 3 d, without S9, methanol", "endpoint": "revertant colonies per plate", "value": "154 ± 3"}
{"Structure (SMILES)": "COc1cccc(-c2n[nH]c(SCc3ccccn3)n2)c1OC", "test": "Ames test, preincubation", "system": "TA98", "setting": "0.063 mg/plate, with rat liver S9", "endpoint": "revertant colonies per plate", "value": 26}
{"Structure (SMILES)": "N#C[C@@]1(n2ccc(N)nc2=O)O[C@H](CO)[C@@H](O)[C@H]1O", "system": "TA1535", "setting": "5 µM, without S9", "endpoint": "viability", "value": "106%"}
